# Results collected from several papers.
# A part holds a random share of what one study measured.

# Sample 1 — method: universal PBM; molecule type: double-stranded DNA, one strand shown; matrix: in vitro; tested at: 600 nM; reading: higher = stronger binding
# Target: Sal-like protein 4, full length isoform A (SALL4, Homo sapiens, UniProt Q9UJQ4, residues 1-1053)
# Chain of UniProt Q9UJQ4 (whole entry, looked up): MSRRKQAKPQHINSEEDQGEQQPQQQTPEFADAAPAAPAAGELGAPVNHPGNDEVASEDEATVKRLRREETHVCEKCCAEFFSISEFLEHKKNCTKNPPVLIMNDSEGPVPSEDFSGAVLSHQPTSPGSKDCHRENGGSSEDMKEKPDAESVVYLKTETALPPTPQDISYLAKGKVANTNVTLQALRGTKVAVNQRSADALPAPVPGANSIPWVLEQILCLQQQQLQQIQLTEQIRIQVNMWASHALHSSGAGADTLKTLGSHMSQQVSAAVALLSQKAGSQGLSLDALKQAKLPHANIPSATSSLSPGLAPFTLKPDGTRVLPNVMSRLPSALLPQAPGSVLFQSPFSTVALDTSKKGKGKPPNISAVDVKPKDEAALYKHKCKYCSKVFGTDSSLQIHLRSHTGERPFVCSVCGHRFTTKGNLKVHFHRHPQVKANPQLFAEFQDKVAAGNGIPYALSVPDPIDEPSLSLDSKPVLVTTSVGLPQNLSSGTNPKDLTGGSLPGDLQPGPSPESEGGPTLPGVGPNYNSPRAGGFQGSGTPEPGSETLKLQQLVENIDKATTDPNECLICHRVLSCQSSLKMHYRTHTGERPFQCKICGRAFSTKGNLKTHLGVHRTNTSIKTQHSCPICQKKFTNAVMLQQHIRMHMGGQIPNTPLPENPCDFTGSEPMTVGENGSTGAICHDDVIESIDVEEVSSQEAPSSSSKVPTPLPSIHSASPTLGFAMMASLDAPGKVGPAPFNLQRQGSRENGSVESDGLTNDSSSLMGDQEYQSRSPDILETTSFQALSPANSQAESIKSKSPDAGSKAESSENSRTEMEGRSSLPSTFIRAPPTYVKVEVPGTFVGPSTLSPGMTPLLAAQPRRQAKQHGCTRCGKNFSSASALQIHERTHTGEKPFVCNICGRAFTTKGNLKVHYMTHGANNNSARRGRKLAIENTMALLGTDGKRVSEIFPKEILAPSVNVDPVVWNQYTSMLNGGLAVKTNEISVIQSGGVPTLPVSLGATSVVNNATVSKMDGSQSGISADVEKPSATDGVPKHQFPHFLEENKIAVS
# Notes: 8-mer, flanks averaged, mean of replicates
Oligonucleotide,E-score
CAGCCGGC,-0.334
GACTTTTA,0.109
GTGGCAGA,-0.262
CCGCATAC,-0.108
AATGAAGA,0.241
AATCCAAG,0.12
CGTGCGCC,-0.194
CGTGCATA,0.171
CTCGTCTA,-0.0515
GTCTTGTA,0.0865
ACGGAGCA,-0.103
GGATTAAA,0.107
CCCGCCTC,-0.304
CAGCACCC,-0.285
GACGCTCA,-0.188
CTGGAAAG,-0.126
GCGGCATA,-0.0395
CATCGTAG,-0.145
AATCTTAG,0.046
CCCTTCTA,-0.125
TAGATCCA,0.11
AGAACAGC,-0.0913
GGGGAACC,-0.321
GATTCCCA,-0.103
GATAACTA,0.318

# Sample 2 — method: RNA Bind-n-Seq; molecule type: RNA; matrix: in vitro; tested at: 365 nM; relative to: no-protein control; reading: higher = stronger binding
# Target: RNA binding protein fox-1 homolog 2, RRM domain, GST-SBP tag (RBFOX2, Homo sapiens, UniProt O43251-10, residues 100-194)
# Notes: natural RNA segment, single round, ends assumed
# Shared flanks, not repeated: GGGAGUUCUACAGUCCGACGAUC … UGGAAUUCUCGGGUGCCAA
# Construct (chain): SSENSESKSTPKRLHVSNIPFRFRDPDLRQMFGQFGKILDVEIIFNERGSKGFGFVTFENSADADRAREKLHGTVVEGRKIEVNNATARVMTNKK
Oligonucleotide,RBNS enrichment (R)
UUUUUUUCGUGUGUGUUUUUGUUAACUACGCUACAGAUAUUGAAUGCACCUUGAGAUAAUUUAGUGUUUUUAACUGGUACAUAAUUUAUCAAGCAGUACAUGAAAGUGUA,0.524
GCAGAGGUUUUGAUGUAUCCCUGCCGUCUGCAAGAGUCCAGAGGCUGGACUGACAGUAGGAAGUAGAAAUAAGCUAUGUGUAGUCUUGGAAAGUUCCCACCUCACAGGGA,1.27
AAUUUAAAAUUAGAAGUAGAGAGAGAUAAGCCAUCGCCCCUUUGCCUCUGAGAAUUGGCUGCUGUUUCUAAUAUAAUUAUUUUCUAAGAUAGCCAGAUAGUUAGAAAAAG,0.531
CCUGCAGAGCCAUAGCUUCAAUGUUCUAAGAUCACUGUGACUGGUCAGGAGGACAGGACGCUGCUUUAGGGAAGUAUCAAAUUCCGUAUUGAAGAAAAGCUUUCAGAGGG,0.398
GCAACCACUGCCCAUUCUUCUAAUCCCUCACAAUACGUGAUUCAGACCCUGAGCCUGGUCCACAGUGACUGGGAAAAGGCAUUAACACAAAACAAAAGAGAUGGGGGGAG,0.329
AAUGAAAGAUAGUGAUCUUUUAGGCCUUCAUUUAUCUUCUAAAAUUCCUCAUCUCAAGGCCACCAGUCCCCAGUUAUCACCCUUGGAAAUCCUCUGUUUAGCUUAGUUGC,0.577
CCCCUUCCUGACAACUUGAGCCAGUAAGCCAUGCAGGGUGUGGUGCCUCCUAGAGAAAACACUGCCUGGACUGUUCUGUGCAUCCCUCCAAACAGCAUCAUCCAAAUCCA,1.21
AAUAGAAUGCAAAUCAAAGAUAUAACCAGUGUGAUUGAUUGCAAGUAGUCAAGUGUAACUAACUCCUAAGGGCAACCAUUUGUAUCUUAUAUAUCAGAAUUACUUUAUAG,0.632
AUUCUCUGCUGGGCGGGUGGGGAAGCAGCUCUACCCUUCCCUACCCCUCCCUGCCCCAACUCUGACUUCGAAUAAGCCUUGGUCCUAUCCAGAAUACACUGGACACCAAG,0.314
UACAUAGUGGAGUAGUUAGUUACCUGAUAACAGUCUUGUUAUUUGGGUCUCUUAGACCUUACCUCUCAACUCCCUCAAGAGUACCAGUCUCUGAAGUUAUAAUGCUUUGG,0.24
UGGAAAGUUCCCACCUCACAGGGAAUGAAACCUAGGGAACACCAGGUACUCGGCGCCCUGUGGACUGUGUGGAAACUGAUUUUUCUUUUUUCUAUACUGAAUACCCUUUG,0.282
GUUUUUUUUCUUUCAUUUUUCUCUCAUUCCAUUUCUGCCUUAACUUUAGUUUGUUCACAGGGAGGCAAAGCUGACAUGAACCUUUUGUCGUGGGACUUCAGGCCACAUUG,0.867

# Sample 3 — method: protein binding microarray; molecule type: double-stranded DNA, one strand shown; matrix: in vitro; tested at: not given; relative to: not given; reading: higher = stronger binding
# Target: Histone acetyltransferase KAT6A, winged helix 1, GST fusion (KAT6A, Homo sapiens, UniProt Q92794, residues 1-85)
# Notes: 8-mer, flanks averaged, mean of 2 arrays, mostly near background
# Residues (chain): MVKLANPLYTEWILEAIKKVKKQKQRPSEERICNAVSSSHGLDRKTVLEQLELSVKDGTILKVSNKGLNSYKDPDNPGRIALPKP
Oligonucleotide,E-score
CACCTTAG,-0.165
CTTTTTTC,-0.159
GGTTTTGA,-0.0113
CAGGCCCA,-0.186
AGGGGGCG,0.146
CGACGCCA,0.294
TATTATGA,0.0207
TCGTCAAA,-0.148
AGGACGTC,-0.0799
ATAGAATA,-0.185
GTAGGAAC,-0.168
GCAACAGC,0.164
AAAGTGAC,-0.0575
AGCCGCGG,0.463
CCCGGCGC,0.463
ATTTTGTA,-0.0798
CGGTTAAA,0.056

# Sample 4 — method: protein-binding microarray; molecule type: double-stranded DNA, one strand shown; matrix: in vitro; tested at: not given; reading: higher = stronger binding
# Target: Myc proto-oncogene protein, bHLH-zipper, MAX partner unstated (MYC, Homo sapiens, UniProt P01106, residues 368-449)
# Chain of UniProt P01106 (368-449, looked up): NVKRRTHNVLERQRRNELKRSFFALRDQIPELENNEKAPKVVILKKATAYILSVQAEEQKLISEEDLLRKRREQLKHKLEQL
# Notes: k-mer, scored over probes, only values ≥0.25
Oligonucleotide,E-score
CACGTGTC,0.493
CCATGGCA,0.322
CCACATGC,0.468
TCGTGACA,0.267
ACGCGGTC,0.348
AGCGTGTA,0.322
GACGTGCC,0.275
CCCATGCA,0.368
CGTGTGAG,0.315
CGCATGTA,0.402
CACCACGC,0.446
AGGCACGA,0.268
TCACACGA,0.254
CCCGCCAC,0.333
CGTGCCGA,0.268
CACGTTTC,0.423
AGTGCACG,0.314
CACACCCG,0.282
CGTGGTGC,0.43
AAACACGA,0.283
GCGTGAGC,0.308
ATCGCACG,0.315

# A few entries again (sample 1):
Oligonucleotide,E-score
GATTCCCA,-0.103
CGTGCGCC,-0.194
CCCGCCTC,-0.304
CAGCCGGC,-0.334
CCGCATAC,-0.108
CTCGTCTA,-0.0515
GTCTTGTA,0.0865
